Published values collected from several papers.
Parts stem from different laboratories: compare values within a part only. Positions count from the first letter of the parent shown.

Set 1 — technique: DHFR PCA, deep sequencing; matrix: yeast; together with: (+)-ABA 0 µM; reference: wild-type fitted maximum; direction: higher = stronger binding; quantity: relative binding score
Target: ABI1, truncated, D143A, DHFR fusion (Arabidopsis thaliana)
Setting: methotrexate growth selection, single substitutions
Starting sequence: PYL1, truncated, DHFR fusion (Arabidopsis thaliana); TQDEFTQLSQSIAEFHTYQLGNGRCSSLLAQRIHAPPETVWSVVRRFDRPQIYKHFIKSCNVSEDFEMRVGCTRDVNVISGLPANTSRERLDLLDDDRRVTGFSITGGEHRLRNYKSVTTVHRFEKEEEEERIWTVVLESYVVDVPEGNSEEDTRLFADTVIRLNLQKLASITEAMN; partner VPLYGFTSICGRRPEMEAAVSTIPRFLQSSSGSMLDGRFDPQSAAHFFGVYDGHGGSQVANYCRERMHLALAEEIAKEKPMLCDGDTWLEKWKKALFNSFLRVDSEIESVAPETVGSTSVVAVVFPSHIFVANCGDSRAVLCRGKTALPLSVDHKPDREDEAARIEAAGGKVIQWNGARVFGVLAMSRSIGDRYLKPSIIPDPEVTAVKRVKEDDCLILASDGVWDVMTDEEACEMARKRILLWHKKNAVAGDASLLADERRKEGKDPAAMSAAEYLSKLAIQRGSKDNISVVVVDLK
T135W: -12.7%
R90L: 1.16%
R45F: 1.48%
V76L: 6.71%
E174V: 1.66%
R113H: 9.67%
E4Q: 4.44%
L164I: -1.18%

Set 2 — technique: RNA Bind-n-Seq; molecule type: RNA; matrix: in vitro; tested at: not given; reference: input RNA pool; direction: higher = stronger binding; quantity: bound/input enrichment
Target: RING finger protein unkempt homolog, zinc fingers 1-6, GST-SBP tag (UNK, Homo sapiens, UniProt Q9C0B0, residues 30-357)
UniProt Q9C0B0, sequence (30-357, looked up): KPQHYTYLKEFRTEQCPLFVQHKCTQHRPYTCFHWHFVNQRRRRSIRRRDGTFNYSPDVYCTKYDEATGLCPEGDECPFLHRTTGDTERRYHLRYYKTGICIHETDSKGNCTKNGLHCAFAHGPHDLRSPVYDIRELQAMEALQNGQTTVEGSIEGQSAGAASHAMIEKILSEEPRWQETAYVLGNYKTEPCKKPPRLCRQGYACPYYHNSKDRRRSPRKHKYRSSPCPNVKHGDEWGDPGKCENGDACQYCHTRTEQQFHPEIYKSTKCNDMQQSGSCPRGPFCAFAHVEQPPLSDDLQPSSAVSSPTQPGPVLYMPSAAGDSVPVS
Setting: RNA with constant flanks, human-mouse chimeric sites, ends assumed
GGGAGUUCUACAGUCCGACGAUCGAAACAUUUAAAUUUAAAGAAGCUGUUGUUCUAGGAAGUACGGACUUUCUAGAAGAUGAUAUAGAGAAAAUUGUAGAAGAACUGGGAAAAGAGUAUAAGGGCAACGCUUAUCAUUUAAUGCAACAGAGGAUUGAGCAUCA: 1.5 ratio
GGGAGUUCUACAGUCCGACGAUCAUCAAAUACUUUGGGGAUAUUAUUAGCGUGGGACAGAGACUGUUGCAAGGAGCUCGGAUUUUAGGAAUUCCAGUUAUCAUAACGGAACAAUACCCCAAAGGACUUGGCAGCACCGUUCAACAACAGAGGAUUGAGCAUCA: 0.703 ratio
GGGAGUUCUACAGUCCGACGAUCAGCACAACACCAGCUAAGCUAAGAAAUCCUUGCACAAGUGAACAAAACUGCACCAGCCCAUUUAGCUACAAAAAUGUGCUUAGUCUUACUGACAGAGGAGAGUUUUUCAAUGAACUUGUUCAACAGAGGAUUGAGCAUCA: 1.14 ratio
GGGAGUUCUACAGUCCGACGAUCAAUUUCCUGUCAUACUUUUUAGACAUUCACAUCAGACUUACAGAGCACCUGGCCACAUUCUAGUUUUGUGUUAUUUCUCAGCUAUGGGGGUAUGAUUAUGAGAACACUGCUUAACUAAUGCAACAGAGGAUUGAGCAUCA: 1.2 ratio
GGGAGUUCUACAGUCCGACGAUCUAUAUCACCAAUGUUCUACAAAAUCCUGACUUGGCUCUGAGAAUGGCUGUGCGGAACAACUUAGCCGGUGCUGAAGAACUCUUUGCCCGGAAAUUUAAUGCUCUCUUCGCCCAGGGAAACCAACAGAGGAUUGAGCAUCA: 0.45 ratio
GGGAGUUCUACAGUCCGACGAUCGUACUGCAGCAGCAGGGCAAGCUGCAGGAAGCUCUGAUGCAUUAUAAAGAAGCCAUACGAAUCAGUCCUACCUUUGCUGAUGCCUACUCUAAUAUGGGAAACACUCUAAAGGAGAUGCAGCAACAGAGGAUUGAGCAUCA: 0.178 ratio
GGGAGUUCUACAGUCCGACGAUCUAUAUCACCAAUGUCCUACAAAAUCCUGACUUGGCUCUGAGAAUGGCUGUACGUAAUAACUUAGCUGGUGCUGAAGAACUCUUUGCCCGGAAAUUUAAUGCUCUUUUCGCCCAGGGAAACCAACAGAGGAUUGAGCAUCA: 0.252 ratio
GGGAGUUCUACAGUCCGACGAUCCACAGAGCAGCACCUACCCCCUCCUCCUUUCCACACCUGCAAACCCUUUUACUUGGGCUGAAUAUUUAGUGUAAUUACAUCUCAGCUUUUGAGGGCUCUGUGGCAAAUUCCCGGAUUAAACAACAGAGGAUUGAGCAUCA: 0.976 ratio

Further values, each from its own experiment
HLA class I histocompatibility antigen, A alpha chain allele A*80:01: HLA class I histocompatibility antigen, A alpha chain, allele A*80:01 (Homo sapiens, UniProt P04439)
P1: viral docking peptide; TSVRRALFTGGSD; partner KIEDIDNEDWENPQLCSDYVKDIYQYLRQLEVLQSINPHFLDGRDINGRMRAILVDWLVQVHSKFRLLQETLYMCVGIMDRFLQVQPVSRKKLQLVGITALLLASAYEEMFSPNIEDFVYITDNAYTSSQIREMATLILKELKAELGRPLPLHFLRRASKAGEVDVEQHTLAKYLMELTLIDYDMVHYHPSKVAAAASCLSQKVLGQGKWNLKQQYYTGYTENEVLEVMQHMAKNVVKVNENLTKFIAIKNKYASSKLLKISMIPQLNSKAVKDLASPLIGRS
DEMVCKWLL  binding (HLA class I histocompatibility antigen, A alpha chain allele A*80:01; peptide-MHC binding; peptide; concentration not given): inactive
P1 V3R  normalised enrichment score (CCNB2, cyclin fold, Cln2 fusion (human); yeast growth competition, sequencing; yeast; strong parent motif; reference: not given, higher = stronger binding): 0.735
GTVPTDNPF  binding (HLA class I histocompatibility antigen, A alpha chain allele A*80:01; peptide-MHC binding; peptide; concentration not given): inactive

For quick reference, copied from above (set 1):
E174V: 1.66%
